# Experimental data gathered from unrelated publications.
# Each numbered part is a random draw from the data of one study; scales do not carry over between parts.

# Block 1 — technique: protein-binding microarray; form: double-stranded DNA, one strand shown; matrix: in vitro; concentration: 940 nM top; notes: 60-bp whole probe; added: salmon DNA 0.4 mg/ml; reference: random background probes; reading: higher = stronger binding; all sequences stand within: GCCTAGCAC … GTCTTGATTCGCTTGACGCTGCTG
# Target: Interferon regulatory factor 5, full length, phosphomimetic (IRF5, Homo sapiens, UniProt Q13568-2, residues 1-514, S451D/S453D/S456D/S462D)
Oligonucleotide,fitted relative affinity [z-score]
TTCTCCATGGGTATGGCCTAGTGCTAG,-0.268
GATGGTATCGGTCTCGGGACGTGCTAG,9.72
GACGGTATCCTACCGCTGACGTGCTAG,-0.372
TTAGAACTGGGGTATCGATTTGTGCTA,2.87
TTAGGAATGGACTTTCGGTTAGTGCTA,2.37
GCTTCTATGTAGTTGATGAAGTGCTAG,-0.262
TACGGTTTCGGTTTCGGGACGTGCTAG,12.2
GAAGATATCAGACTGGAGACGTGCTAG,-0.44
TTAGGTTTCGGTCTCGGTCAGTGCTAG,15.2
GACGATCTCAGAATCGAGACGTGCTAG,0.0384
GACGATATCAGTTTCCAGACGTGCTAG,0.37
TTGGAACTGGGGTATCGATTAGTGCTA,2.71
TTAGGACTGGGGTTTCGGGTAGTGCTA,2.93
GACGATTCCGGGACTGGAGACGTGCTA,-0.342
GACGGCCTCCTTATCCTGACGTGCTAG,-0.0939
TACGGACTGCTTCTCCTGACGTGCTAG,-0.19
TTCTACTTCTCTTTTTGCTTGTGCTAG,2.26
TTAGGTATCGGGACTGGGTAAGTGCTA,4.26
CCTATTATATATATCATAAGGTGCTAG,0.439
GATGGACTGGGTATCGGGACGTGCTAG,0.876

# Block 2 — technique: protein binding microarray; form: double-stranded DNA, one strand shown; matrix: in vitro; concentration: not given; reference: not given; reading: higher = stronger binding
# Target: Histone acetyltransferase KAT6A, winged helix 2, GST fusion (KAT6A, Homo sapiens, UniProt Q92794, residues 85-181)
# Notes: 8-mer, flanks averaged, mean of 2 arrays, mostly near background
# Residues (chain): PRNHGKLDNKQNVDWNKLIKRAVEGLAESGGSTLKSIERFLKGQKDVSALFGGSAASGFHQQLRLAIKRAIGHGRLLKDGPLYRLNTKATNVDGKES
Oligonucleotide,E-score
AATGTTAC,-0.162
TCTCTTCA,-0.00988
GATTACAA,0.0478
GTTCTCCA,0.00494
AATGGCCA,-0.216
AAAGCCTG,-0.104
AGGCTTCG,-0.0694
GGGTGTAC,-0.176
ACTTCCTC,-0.0916
ACGCTGCG,0.101
GAGGGTCA,-0.053
CGAAATGA,0.0727
ACCTCCAA,0.0209
ATAATAGC,-0.151
CTGATGTC,-0.00893
CGCGCAAA,0.101

# Block 3 — technique: RNA Bind-n-Seq; form: RNA; matrix: in vitro; concentration: 200 nM; notes: whole 134-nt RNA, ends assumed; added: 150 mM LiCl; reference: input library; reading: higher = stronger binding; all molecules: 7-deaza-guanosine replaces G
# Target: Fragile X messenger ribonucleoprotein 1, C-terminal low-complexity region (Fmr1, Mus musculus, UniProt P35922)
# All sequences stand within: GGGAGUUCUACAGUCCGACGAUC … UGGAAUUCUCGGGUGUCAAGG
Oligonucleotide,log2 enrichment
CCUCAAGUCCUGUGCUACACAUCGUAUGUACCGAAUCGGGUGGGGUGGGUGGGAAAGUAUUAUGUUACGCCGUUCGGAUCUGCACUUCCA,-0.49
GUAAGUGUGGCAAUGUGAACUGAAGCUGAUGGGCUGAGAACAUGGACUGAGCUUGUGGUGUGCUUUGCAGGAGGACUUGAAGCAGAGUUC,1.49
CUGUGCUACACAUCGUAUGUACCGAAUCGGGGCCCCCCCGGGCCCCCCCGGCCCCCCCGGGGAAAGUAUUAUGUUACGCCGUUCGGAUCU,0.232
UGUCCCUGACUCUCCAUUUCCCCAUCUGAGUGGAUUUGGACCUAAUAGGGCACUGGAGCUGGUUCGAAUCCUGACUGGACUACUUGGCAA,0.59
CAAGUCCUGUGCUACACAUCGUAUGUACCGAAUCGGGGCCCGGGCCCGGGCCCGGAAAGUAUUAUGUUACGCCGUUCGGAUCUGCACUUC,-1.52
UGGGAGGUGGAUUUUGUUUAUUUUUUUAGCUCAUUUCCAGGGGUGGGAAUUUUUUUUUAAUAUGUGUCAUGAAUCAAGUUGUUUUUGAAA,0.527
GCAGGAAGUAAAAACAAAUGGGAAUGCUUCGGAUAGUGGCAGGGGUGGGGGUUGCUAAGGAAAGGGUGGGAUGGGAGUGGGUAAAGAGUU,1.43
GUCCUGUGCUACACAUCGUAUGUACCGAAUCGGGUUUGGGUUUUUUUGGGAAAAAGGGAAAGUAUUAUGUUACGCCGUUCGGAUCUGCAC,-0.882
UGGCCCUUCCCCUGGAGCCAUGCUGGGCCCUAGCCCGGGUCCCUCGCCGGGCUCCGCCCACAGCAUGAUGGGGCCCAGCCCAGGGCCGCC,0.667
UAACUUUAGAGGAGGAUCUGAUGGAUAUGGCAGUGGACGUGGAUUUGGGGAUGGCUAUAAUGGGUAUGGAGGAGGACCUGGACGUGGCAA,0.153
GUCCUGUGCUACACAUCGUAUGUACCGAAUCGGGGUUUUUGGGGUUUUUGGGGUGGGGAAAGUAUUAUGUUACGCCGUUCGGAUCUGCAC,-0.879

# Block 4 — technique: universal PBM; form: double-stranded DNA, one strand shown; matrix: in vitro; concentration: 600 nM; reading: higher = stronger binding
# Target: Sal-like protein 4, full length isoform A (SALL4, Homo sapiens, UniProt Q9UJQ4, residues 1-1053)
# Chain of UniProt Q9UJQ4 (whole entry, looked up): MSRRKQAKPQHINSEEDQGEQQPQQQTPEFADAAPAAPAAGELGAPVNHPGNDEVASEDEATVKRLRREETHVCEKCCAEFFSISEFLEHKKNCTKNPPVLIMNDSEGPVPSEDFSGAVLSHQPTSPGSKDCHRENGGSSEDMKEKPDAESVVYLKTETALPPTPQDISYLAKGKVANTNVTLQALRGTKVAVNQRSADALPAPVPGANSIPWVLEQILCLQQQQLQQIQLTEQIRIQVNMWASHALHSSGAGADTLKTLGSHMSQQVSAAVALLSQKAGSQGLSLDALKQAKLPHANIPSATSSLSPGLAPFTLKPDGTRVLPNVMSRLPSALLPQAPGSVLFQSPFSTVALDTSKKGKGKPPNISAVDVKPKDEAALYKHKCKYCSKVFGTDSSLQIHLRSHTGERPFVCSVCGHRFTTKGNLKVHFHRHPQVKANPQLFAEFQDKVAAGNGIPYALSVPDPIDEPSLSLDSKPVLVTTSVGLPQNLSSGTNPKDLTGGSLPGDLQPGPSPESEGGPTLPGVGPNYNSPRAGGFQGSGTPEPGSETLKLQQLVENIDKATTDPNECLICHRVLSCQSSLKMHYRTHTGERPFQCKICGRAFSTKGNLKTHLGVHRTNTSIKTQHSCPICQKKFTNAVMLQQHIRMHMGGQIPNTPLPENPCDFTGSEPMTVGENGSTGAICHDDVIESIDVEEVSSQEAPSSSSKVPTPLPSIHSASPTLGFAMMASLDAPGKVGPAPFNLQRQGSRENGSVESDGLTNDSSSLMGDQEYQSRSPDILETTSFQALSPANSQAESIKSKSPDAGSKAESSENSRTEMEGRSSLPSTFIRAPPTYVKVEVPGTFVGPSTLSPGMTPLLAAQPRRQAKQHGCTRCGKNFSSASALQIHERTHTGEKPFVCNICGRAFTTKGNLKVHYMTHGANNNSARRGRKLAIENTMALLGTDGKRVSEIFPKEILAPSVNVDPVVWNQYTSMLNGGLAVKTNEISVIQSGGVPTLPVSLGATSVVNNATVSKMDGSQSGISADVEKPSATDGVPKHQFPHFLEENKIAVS
# Notes: 8-mer, flanks averaged, mean of replicates
Oligonucleotide,E-score
TAACTCAA,0.176
ATTAGAAT,0.294
CCCACAAC,-0.129
GTCCTAGA,-0.17
CTTTGAGC,-0.237
CAAGGCTG,-0.13
AACTTTCC,-0.0613
TTCGGAAA,0.0209
GAACAATA,0.29
TACTGCCA,-0.015
AATACAGT,0.233
CATACGGA,-0.0393
TCGCACGA,-0.0324
GAAAATTA,0.366
ACCTTCAT,0.0163
CACTGATA,0.0933
CCGAGGAC,-0.288
CGGCAGGC,-0.333
ACAACCCT,-0.149
AGTAGATA,0.327
AGCGAAAG,0.0307
AGACCTCC,-0.204
AGCACTTA,0.0954
ATCAGAGG,0.0672
CGAAAGCG,-0.27

# Block 5 — technique: RNA Bind-n-Seq; form: RNA; matrix: in vitro; concentration: 365 nM; reference: no-protein control; reading: higher = stronger binding
# Target: RNA binding protein fox-1 homolog 2, RRM domain, GST-SBP tag (RBFOX2, Homo sapiens, UniProt O43251-10, residues 100-194)
# Notes: natural RNA segment, single round, ends assumed
# All sequences stand within: GGGAGUUCUACAGUCCGACGAUC … UGGAAUUCUCGGGUGCCAA
# Target sequence (chain): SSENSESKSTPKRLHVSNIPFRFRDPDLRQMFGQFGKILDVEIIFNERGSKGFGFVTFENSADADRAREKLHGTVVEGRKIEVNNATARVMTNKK
Oligonucleotide,RBNS enrichment (R)
CUAAUUUUAUAAGGCAUCUUAUUUUAUCUUUCAGAGAGCUCUACUUCUGGCUCAGGGAAUCUGAUAGAGCCCAUGGAAGAGAGUCCUCAUCAGCAAACCAGGCCAGCAUU,1.3
AAGGGUUUUGUGUUGGCAUGAGUUCUGGAACACAUCUCAGGCUGUCAGAGCAAAGUGAUCCAGAAUGCAACAGGAGCUACCUCCUGUAACCACUACAAUGUCUGUCCUUG,1.17
AUCUCAGGGCCUGUCUUGUCCCCUUCUCGGAGGGCCAGAGAAAAGAUGUGGGAAGGAUAUAGCUCGGGGCUUAGUGAGGAAGAUGGACACCCAUGGUUCAAAGUCUGGUG,1.29
ACAUAAGUGAAAGAAGUCUCAGUUCAGUGAACACAAAACUUAUUUAAAGAUGCUUUAUAUGUAGAAAUUGUUUCAAAUCAUACUCUAACCCUUAGUGAGGGCAAAGUGUA,0.837
UCCUUGAGAUUACCCAAGUACCGUCAUGACCAAGAAGCCUUUCCGUCAUUGAGUACCUGAUUUUUAAAAGCAAGCACCCAAAUAAUUCUCUCUAGGGAAUCUCAUUUGUU,0.383
UUCAUUCUCGUGAGUCAUUUAAAUGUGUACAAUGUACACACUGGUACUUAGAGUUUCUGUUUGAUUCUUUUUUAAUAAACUACUCUUUGAUUUAAUUGUUUGGUGUAAGC,0.49
GGGCAGCCCAAAGCUGCAGGUGCCAGGGCCCACCCCAGCCUCGCCUGUCACCCCCACUCCCGCCUCAGGGCCAGGCCCAGGCCUCACCACCUGACGCUGCAUGAGACAUU,7.5
AUUAAAAGAUGAUGCUAUUACAACUAGCAUUGCCUCAAAAACUGGGACCAACCAAAGUGUGUCAACCCUGUUUCCUUAAAAGAGGCUAUGAAUCCCAAAGGCCACAUCCA,0.313
UAUAGUUAAAAUGGCUUCCCACAGGGUAGAUAAUUAUCCAGGAUCCUUCCUUUUCCUUCUUCCUCCAGGUUUUUCAGGGGUCACUUCACAUUUCUAAAGAAAGAGUGAAU,0.278
UUUUACGGAUAUCUUGCUUCUGUUCCCCAUGGAGCUCCGAAUUCUUGCGUGUGUGUAGAUGAGGGGCGGGGGACGGGCGCCAGGCAUUGUCCAGACCUGGUCGGGGCCCA,0.384
CUCAGCCGAUCAGGAAUCAUUGGCAGAUGCACAUGCCCUGGAACUUUCCCUUAGUUUUGUGAACUCUGCUAAUCACUGUGUCUCUAAGUUAGACUUAUUUUCUAGUGGCU,0.423
AGUCUGCCUACAACAGCUACAGCUGGGGGGCCAACUGGGCCCUGACCCUCUUCUCCCGGUCCCAUCUUCUGAGAGGGCUUCUCAGCCUGGAAACUAUGGAAACAGCAUCA,0.329

# Block 6 — technique: protein-binding microarray; form: double-stranded DNA, one strand shown; matrix: in vitro; concentration: not given; reading: higher = stronger binding
# Target: Protein C-ets-1 (ETS1, Homo sapiens, UniProt P14921, residues 1-441, full length assumed)
# Notes: k-mer, scored over probes, only values ≥0.25
# Target sequence (chain): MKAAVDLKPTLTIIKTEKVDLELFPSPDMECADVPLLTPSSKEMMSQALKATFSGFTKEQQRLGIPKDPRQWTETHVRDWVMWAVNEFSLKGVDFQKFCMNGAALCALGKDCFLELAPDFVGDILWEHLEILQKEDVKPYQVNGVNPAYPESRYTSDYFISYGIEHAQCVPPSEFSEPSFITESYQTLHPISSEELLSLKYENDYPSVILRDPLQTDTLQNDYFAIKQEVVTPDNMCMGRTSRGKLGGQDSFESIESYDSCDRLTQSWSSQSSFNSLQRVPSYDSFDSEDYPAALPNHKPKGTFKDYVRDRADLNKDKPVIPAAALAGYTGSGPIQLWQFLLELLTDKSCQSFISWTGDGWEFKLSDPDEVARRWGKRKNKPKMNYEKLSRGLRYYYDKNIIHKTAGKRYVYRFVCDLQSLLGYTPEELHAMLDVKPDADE
Oligonucleotide,E-score
CGGAGGTA,0.272
GCTCTTCC,0.284
ATTTCCTG,0.478
CCTCCTCC,0.298
CCACTTCC,0.468
GGAAGTTA,0.448
GGAAGTAA,0.458
CTTTCCCC,0.286
CCCGGACA,0.358
TAGCGGAA,0.448
GGGTGGTA,0.259
CTGCAGGA,0.336
CCCTCCGG,0.267
GGTAGGAA,0.347
ACATCCGC,0.481
ACGGATAT,0.439
ACGTTTCC,0.404

# A few entries again (block 6):
Oligonucleotide,E-score
GGGTGGTA,0.259
ACATCCGC,0.481
CCACTTCC,0.468
GGAAGTAA,0.458
CCTCCTCC,0.298
GGTAGGAA,0.347
